Results from different studies.
Numbered parts are unrelated; each lists some results of a single study.

Set 1
Target: Histone acetyltransferase KAT6A, winged helix 2, GST fusion (KAT6A, Homo sapiens, UniProt Q92794, residues 85-181)
Method: protein binding microarray
Molecule type: double-stranded DNA, one strand shown
Medium: in vitro
Tested at: not given
Notes: 8-mer, flanks averaged, mean of 2 arrays, mostly near background
Relative to: not given
Reading: higher = stronger binding
Endpoint: E-score
Residues (chain): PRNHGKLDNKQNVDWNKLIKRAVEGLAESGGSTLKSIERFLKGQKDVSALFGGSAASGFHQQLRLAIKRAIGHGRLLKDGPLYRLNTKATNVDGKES
AACTCACG: 0.148
CTATATCC: -0.0911
CATATCCC: -0.0961
GGCCCCGA: 0.12
CCTCCAGA: 0.111
CGGAGACC: 0.08
CCCAAGGA: -0.0892
CCAGAAGC: 0.104
ATATCTCG: 0.101
AGTCGATA: -0.115
TAACGCTA: -0.147
TTTATAAA: 0.316
ATGGCCGA: 0.0336
TGAACGCA: 0.0981
AATAGTAC: -0.0813
AGACGCAG: 0.127
CACCGAAC: -0.06
ACTTGATC: -0.097
CGGTTAAG: 0.0167
ACGTGGAC: -0.0943
TCTTGGAA: 0.161

Set 2
Target: Ras GTPase-activating protein-binding protein 1, full length (G3BP1, Homo sapiens, UniProt Q13283)
Sequence of UniProt Q13283 (whole entry, looked up): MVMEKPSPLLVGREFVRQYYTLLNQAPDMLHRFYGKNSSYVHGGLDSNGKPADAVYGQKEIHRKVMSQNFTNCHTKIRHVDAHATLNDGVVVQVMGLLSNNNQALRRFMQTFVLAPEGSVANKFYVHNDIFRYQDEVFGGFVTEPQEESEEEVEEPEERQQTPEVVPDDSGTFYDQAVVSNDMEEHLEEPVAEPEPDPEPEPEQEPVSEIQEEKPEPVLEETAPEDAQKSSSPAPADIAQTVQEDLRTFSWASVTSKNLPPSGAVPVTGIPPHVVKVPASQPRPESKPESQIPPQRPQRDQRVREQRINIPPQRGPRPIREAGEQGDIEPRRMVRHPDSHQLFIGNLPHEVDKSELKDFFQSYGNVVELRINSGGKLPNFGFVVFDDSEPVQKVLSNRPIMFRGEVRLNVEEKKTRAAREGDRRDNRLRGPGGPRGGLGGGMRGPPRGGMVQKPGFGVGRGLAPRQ
Method: RNA Bind-n-Seq
Molecule type: RNA
Medium: in vitro
Tested at: 200 nM
Notes: whole 134-nt RNA, ends assumed
Together with: 150 mM LiCl
Relative to: input library
Reading: higher = stronger binding
Endpoint: log2 enrichment
All molecules: 7-deaza-guanosine replaces G
Shared flanks, not repeated: GGGAGUUCUACAGUCCGACGAUC … UGGAAUUCUCGGGUGUCAAGG
AAGUCCUGUGCUACACAUCGUAUGUACCGAAUCGGAAAGGAAAAAAAGGAAAAAGGAAAGUAUUAUGUUACGCCGUUCGGAUCUGCACUU: -0.707
UCCUGUGCUACACAUCGUAUGUACCGAAUCGGAAAAAAGGGGAAAAAAGGGGAAAAAAGGAAAGUAUUAUGUUACGCCGUUCGGAUCUGC: -0.352
GCAGGAAGUAAAAACAAAUGGAAAUGCUUCGGAUAGUGGCAGGGGUGGGGGUUACUAAGGAAAGGGUGGGAUGGGAGUGGGUAAAGAGUU: 0.278
UGGGAGGUGGAGUUUGUUUAUUUUUUUAGCUCAUUUCCAGGGGUGGGAAUUUUUUUUUAAUAUGUGUCAUGAAUAAAGUUGUUUUUGAAA: -0.812
ACCAUGCAGGUGGGCAUCUUUGGGAAGUGGGGCAAGGGGGGGAUAGGGAGGGGGGUAACACUUUGGGAACAGGUGGUCCGAGGUCGUUUC: 0.0266
GUCCUGUGCUACACAUCGUAUGUACCGAAUCAAAGUGUGUGUGUGUGUGUGUGUGAAAAAAGUAUUAUGUUACGCCGUUCGGAUCUGCAC: -1.01
AGUCCUGUGCUACACAUCGUAUGUACCGAAUCGGGGAAAAAGGGGUGGGGAAAGGGGAAAGUAUUAUGUUACGCCGUUCGGAUCUGCACU: 0.105
UCAAGUCCUGUGCUACACAUCGUAUGUACCGAAUCGGUUGGGUUGGGGUUGGGGAAAGUAUUAUGUUACGCCGUUCGGAUCUGCACUUCC: -0.38
CAAGUCCUGUGCUACACAUCGUAUGUACCGAAUCGGUUUUUUUGGAGGUUUUUGGAAAGUAUUAUGUUACGCCGUUCGGAUCUGCACUUC: -0.502
UCCUCAAGUCCUGUGCUACACAUCGUAUGUACCGAAUCGGCGGGCGGGCGGAAAGUAUUAUGUUACGCCGUUCGGAUCUGCACUUCCAGC: 0.924
UGCUUCAGACCAAGCGGAGCUCCCGGAGGCAAAGCCUGGAGCUGCAGAAGUGUGAAGAGAUCCUCCACAAGAUCGUGAAGUACCGCUUCA: -3.38

Set 3
Target: Sal-like protein 4, full length isoform A (SALL4, Homo sapiens, UniProt Q9UJQ4, residues 1-1053)
Sequence of UniProt Q9UJQ4 (whole entry, looked up): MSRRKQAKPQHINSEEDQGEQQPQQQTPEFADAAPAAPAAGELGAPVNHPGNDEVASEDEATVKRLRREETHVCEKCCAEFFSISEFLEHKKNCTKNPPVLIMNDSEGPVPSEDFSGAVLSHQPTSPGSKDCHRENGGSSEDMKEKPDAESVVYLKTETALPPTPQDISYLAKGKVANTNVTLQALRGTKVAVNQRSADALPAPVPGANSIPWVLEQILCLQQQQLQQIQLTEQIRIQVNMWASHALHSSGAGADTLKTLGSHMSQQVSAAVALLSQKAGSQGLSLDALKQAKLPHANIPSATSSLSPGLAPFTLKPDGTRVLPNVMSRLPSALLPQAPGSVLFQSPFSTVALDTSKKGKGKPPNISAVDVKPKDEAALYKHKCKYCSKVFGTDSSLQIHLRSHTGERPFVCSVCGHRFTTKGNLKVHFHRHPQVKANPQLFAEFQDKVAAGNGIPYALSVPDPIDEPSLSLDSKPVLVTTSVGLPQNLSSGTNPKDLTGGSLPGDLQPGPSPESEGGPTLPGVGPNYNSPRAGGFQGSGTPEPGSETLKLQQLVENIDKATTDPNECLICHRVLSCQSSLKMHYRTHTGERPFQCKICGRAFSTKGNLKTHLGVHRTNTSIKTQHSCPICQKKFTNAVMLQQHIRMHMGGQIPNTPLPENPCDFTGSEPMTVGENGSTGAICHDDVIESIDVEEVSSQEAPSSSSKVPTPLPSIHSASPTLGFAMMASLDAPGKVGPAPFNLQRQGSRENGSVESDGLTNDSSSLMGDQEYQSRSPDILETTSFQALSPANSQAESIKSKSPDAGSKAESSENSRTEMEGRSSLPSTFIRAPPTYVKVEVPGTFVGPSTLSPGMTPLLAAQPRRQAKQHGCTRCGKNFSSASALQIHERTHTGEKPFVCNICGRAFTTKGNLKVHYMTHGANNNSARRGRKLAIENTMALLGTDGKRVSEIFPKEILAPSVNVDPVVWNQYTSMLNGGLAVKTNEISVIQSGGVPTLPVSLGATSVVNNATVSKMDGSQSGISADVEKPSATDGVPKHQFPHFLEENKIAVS
Method: universal PBM
Molecule type: double-stranded DNA, one strand shown
Medium: in vitro
Tested at: 600 nM
Notes: 8-mer, flanks averaged, mean of replicates
Reading: higher = stronger binding
Endpoint: E-score
GATCCCAA: -0.171
CGCCTGGC: -0.447
AGGCTCGC: -0.297
TCGGTTAA: 0.125
AAGGCGAA: -0.107
AGCCCGCA: -0.255
CCACCCGC: -0.336
CTAGGATC: -0.132
ATCGCTAA: 0.122
GCATAGGA: -0.00559
GCGACTCA: -0.159
AGCCAGTA: -0.193
CTGCGGCC: -0.391
AATCACAC: 0.129
CATCGCGC: -0.191
CCAACGTA: -0.031

Set 4
Target: RING finger protein unkempt homolog, zinc fingers 1-6, GST-SBP tag (UNK, Homo sapiens, UniProt Q9C0B0, residues 30-357)
Method: RNA Bind-n-Seq
Molecule type: RNA
Medium: in vitro
Tested at: not given
Notes: RNA with constant flanks, human and mouse sites, ends assumed
Relative to: input RNA pool
Reading: higher = stronger binding
Endpoint: bound/input enrichment
Shared flanks, not repeated: GGGAGUUCUACAGUCCGACGAUC … CAACAGAGGAUUGAGCAUCA
Target sequence (chain): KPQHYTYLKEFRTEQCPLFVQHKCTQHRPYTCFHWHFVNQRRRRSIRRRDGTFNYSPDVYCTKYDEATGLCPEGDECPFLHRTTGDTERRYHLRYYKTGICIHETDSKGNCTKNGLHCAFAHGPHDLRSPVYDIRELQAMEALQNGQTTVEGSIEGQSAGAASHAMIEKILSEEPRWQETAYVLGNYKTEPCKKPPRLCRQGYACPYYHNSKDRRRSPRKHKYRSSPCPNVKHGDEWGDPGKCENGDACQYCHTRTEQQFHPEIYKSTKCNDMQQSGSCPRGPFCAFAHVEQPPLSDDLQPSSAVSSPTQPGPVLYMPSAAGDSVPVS
AAUGCAUCUCUUCAAGACCAUAUUUAUCCGAGCUGUUUUGGGAAUACUCCAGAGUGGAAUAGUUCUAAAUUUAUAAGUCUUUGGGGAUCAGAAGUGAUGAAUGAUAAGAACUGGAAUCCU: 0.16 ratio
UUGCAAAAAUGUGGAUCAUGUAGGUUAGAAGUGAAUUGUUUAGUGAAGUUUUUGUACUUUUGUGAUUUUCUUGUUUAUGUCUGUUUUUUUUUUUUUUUUUUAACAUUUGUGUGUAAUAUA: 80.9 ratio
CAGCAGGAAAAAAUUAAGAGAAUACAGCAAAUCAGAAUGGAGAAAGAACUGAGAGCUCAGCAGAUUCUCGAGGCUAAAAAGAAAAAGAAGGAAGAAGCGGCAAAUGCCAAAUUAUUGGAG: 0.619 ratio
UAGAUCAGUGUGUCUCAUUGAUCAAUUUGCCAUGUGUAUAUAAUGUAUAUUUGUGUGUAUACACACUUUGUCUUAUGCUGUAAUUUUUUUAAAACUUGAAUGUUUUGGGAUAUGUAUUUA: 0.255 ratio
AGAAAUGGGUCGCUCCAAUUCUAGAUCACAUUCUUCAAGGUCAAAGUCUAGAUCACAGUCUAGUUCUCGAUCAAGAUCAAGAUCUCAUUCUAGAAAGAAGCGAUACAGUUCUAGGUCUCG: 0.143 ratio
AUGAGUAAACAAUAUGGUAAUGAAGUAUUUCUGGCCAAGCUUAUUGCUCAGGCAUGCGUAUCUAUUUUUCCUGAUUCCGGCCAUUUCAAUGUUGAUAACAUCAGAGUUUGUAAAAUUCUG: 0.131 ratio
CGUGGCUUCGAUUGGGCGGGGGGCGUCCGGAGUUGGCUGGGACGGCCGCCUGCAGCAUGUUUGUACACCAAGUGCAUGCAGUGCCCGAAGAGGUCAGAAGAGGGCAUCAGAUCCCCUAGG: 0.219 ratio
ACUGGCUUCGGCAUCAUCCCUGUGGGCGGCACUUACCUCAUUCAGUCUGUUCCAGCUGAGCUCAAUAUGGAUCACACCGUGGUGCUGCAGCUGGCAGAGAAUGGCUACGUGACUGUCAGU: 0.0745 ratio
CAGCUUCGGCAGGACAUAGUUGCAGGACGUCUGCCCUGUUCCUUUGCAACCUUAGCAUUAUUAGGUUCUUACACCAUCCAGUCUGAACUGGGAGACUACGACCCAGAACUCCAUGGCGUG: 0.569 ratio
UCGGUCUUCAAUAACAAGAACAGUGGCUUCUGGCACAGCAGCCUCAUUGACCGGAACCUCAUAGAUUAUUUUGUCCCCUUCCUGCCCCUGGAGUACAAGCACCUGAAAAUGUGCAUCAGA: 1.86 ratio
UUAGCAGCCAACGAAGCCCAGCUUCUGAGGAAGAUCCAGCUGUUGUGCCUUAUGGAGAUGACUUUCACACGGCCUGCCAACCACAGACAACUCACUUUUGAAGAAAUUGCCAAAAGUGCC: 0.126 ratio

Set 5
Target: RNA binding protein fox-1 homolog 2, RRM domain, GST-SBP tag (RBFOX2, Homo sapiens, UniProt O43251-10, residues 100-194)
Method: RNA Bind-n-Seq
Molecule type: RNA
Medium: in vitro
Tested at: 365 nM
Notes: natural RNA segment, single round, ends assumed
Relative to: no-protein control
Reading: higher = stronger binding
Endpoint: RBNS enrichment (R)
Shared flanks, not repeated: GGGAGUUCUACAGUCCGACGAUC … UGGAAUUCUCGGGUGCCAA
Construct (chain): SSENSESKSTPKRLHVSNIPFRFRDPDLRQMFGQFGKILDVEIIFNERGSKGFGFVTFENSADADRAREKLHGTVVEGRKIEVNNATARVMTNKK
UUUUAUGCAUUGAUGGUUUUUUUUUUCUUUUUUGCCAAAUUGACUGUCACGCGGCAGCUUCAGGGAGCUCGCAUUCUCUUGUGUUCGUGUUGCCCUCGUGCCCAUCAAGU: 0.599
CCACAGCAAAGGUAUUGUGGAUGACCCUUAGAAUCCAUUCUCUGGUCUUCUGAAAUACCAAGGGCAGAUGUCACCUCCUUCCUCAGCAGGACUGACUCUGGGCUCUACAA: 0.291
GCCUUCUGCAGCAGGUAGGCUUGCUUCUGUUAGCUCUGCCUGGAUGCCUUUGUUCCAGAAGGCAUCAGGCCUCUAAAGACUGUCUCACAAGUGAUGCCCUUCUGGAGACU: 0.232
GGGCCCCUAGCCUUCCUGCUCCAAGAAACGGCCAUCCCAACAGGGGACUCUGCUACACUGUGCCUUUGUGGUCAGCCUCACUGACGGGGUCUGCAAGUAGCCAGGGCGUG: 0.257
CCCUGUGUGGGACCACACUGUCAUCUCGCUGCUGGCAGAAAAGCCUGAUCCCAGGAGGCCCUGCAGUUCCCCCGACCCGCGGAUGGCAGUCUGGAAUAAAGCCCCCUAGU: 0.217
AGGGCCUGACUUGAGCCACUCCUUCCUUCAGGACUCUGCGGGAGGCUGGGGCCCCAUCUUGAUCUUUGAGCCCAUUCUUCUGGGUGUGCUUUUUGGGACCAUCACUGAGA: 0.242
CCCCCUCUCCUUCCUCCCCAGUGAGUUCACUUGCCAUUCGGGCACACUGGGUUAUUUCUCCGUCCUCAUUGUCAUCUAGAACUAGCUUUAGGGUAGUGCCAGACAAACAU: 0.884
UCUUAGGGUGCCUGCCUCUGCCAUGGCAUCCUGUCCCUUUCCCAUGUGCUCGGUGUUCAGUGGUGUAUAUUUCUUCUCCCAGACAUGGGGCGUGUGCCCCAAGGGGUCUG: 0.486
GGGCCCGGCUGUUAGCACCGUGCUGACUUUCCAUUGGAGACUUGAGUUGGAGAGAGGUGGGUCCUAUUGUAACAACCGCUAUAAUUUAUAUGGACUAUAUUGUCUCCCUG: 0.565
CCUAGCUUCAGAUAAAGAUGAAAGAGAGGAGAUCAUUGUCUUCUGUCUUCUUCUGGCCCUGGGUUUAUACCAGGAAAGCCAUGCCAGAAUUACCAAAUAUGAAGUAUGAA: 0.286
CCAUCGGUAGGGGCACCGAUUAGUCUACUAACAGCCAGAGGUCCAUCUAGCAGGGUGCCGGGAGGAGCUGAGCCCCCGGAGGUGGGCUCCUGGUGACGGGUGUCCAAGAA: 0.471
UGGGGGUGAGGAGUGGGGAGACUUCUCUGGUCAUUACACUGCUAUUUAUUUCUAGAACUCACUAUCAGUGAGCAGUGCCAGAGUGUUUUCUCUUUGACCUAGAGGUUUCA: 0.592

Some of these lines once more (set 1):
GGCCCCGA: 0.12
ATGGCCGA: 0.0336
TAACGCTA: -0.147
ACTTGATC: -0.097
CCAGAAGC: 0.104
CGGTTAAG: 0.0167
CCCAAGGA: -0.0892
TCTTGGAA: 0.161
